Measured values pooled from the literature.
A part holds a random share of what one study measured. Several values in a cell are separate wells, animals, samples, runs or records.
UniProt Q9UKE5, sequence (whole entry, looked up): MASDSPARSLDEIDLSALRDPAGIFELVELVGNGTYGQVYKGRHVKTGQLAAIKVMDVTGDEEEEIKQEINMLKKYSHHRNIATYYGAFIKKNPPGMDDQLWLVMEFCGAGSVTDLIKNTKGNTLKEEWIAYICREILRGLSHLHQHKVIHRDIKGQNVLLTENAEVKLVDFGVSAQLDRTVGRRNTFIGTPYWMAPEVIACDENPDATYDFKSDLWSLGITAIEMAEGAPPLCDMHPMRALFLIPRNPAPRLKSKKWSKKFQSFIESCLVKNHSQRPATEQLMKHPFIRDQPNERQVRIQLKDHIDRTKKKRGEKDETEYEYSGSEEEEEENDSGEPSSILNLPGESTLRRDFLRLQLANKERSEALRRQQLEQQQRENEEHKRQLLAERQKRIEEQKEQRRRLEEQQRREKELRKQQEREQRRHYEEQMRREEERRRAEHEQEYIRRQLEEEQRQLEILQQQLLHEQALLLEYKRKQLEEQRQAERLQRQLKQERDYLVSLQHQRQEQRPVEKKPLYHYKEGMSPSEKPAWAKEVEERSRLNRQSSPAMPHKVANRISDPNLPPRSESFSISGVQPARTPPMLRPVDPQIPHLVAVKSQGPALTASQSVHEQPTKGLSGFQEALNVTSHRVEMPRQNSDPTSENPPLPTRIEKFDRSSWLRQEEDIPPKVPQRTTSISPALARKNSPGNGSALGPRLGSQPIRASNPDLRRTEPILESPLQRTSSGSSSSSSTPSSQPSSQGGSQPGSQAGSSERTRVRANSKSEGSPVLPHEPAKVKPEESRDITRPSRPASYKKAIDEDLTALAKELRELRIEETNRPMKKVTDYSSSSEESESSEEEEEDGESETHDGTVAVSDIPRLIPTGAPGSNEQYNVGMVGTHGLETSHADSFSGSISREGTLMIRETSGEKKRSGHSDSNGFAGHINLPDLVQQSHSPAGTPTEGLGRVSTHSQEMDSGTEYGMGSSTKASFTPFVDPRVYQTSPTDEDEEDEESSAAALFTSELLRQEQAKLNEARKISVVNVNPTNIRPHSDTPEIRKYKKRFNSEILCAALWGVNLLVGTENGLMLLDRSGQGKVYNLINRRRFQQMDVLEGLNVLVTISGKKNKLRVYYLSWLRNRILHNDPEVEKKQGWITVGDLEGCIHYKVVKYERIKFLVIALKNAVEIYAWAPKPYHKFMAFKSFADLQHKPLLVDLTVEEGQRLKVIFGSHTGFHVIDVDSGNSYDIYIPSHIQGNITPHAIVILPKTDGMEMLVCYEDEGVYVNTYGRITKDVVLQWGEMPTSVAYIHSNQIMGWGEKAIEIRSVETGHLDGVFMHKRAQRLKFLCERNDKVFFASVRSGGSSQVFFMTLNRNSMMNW
UniProt Q9UQM7, sequence (whole entry, looked up): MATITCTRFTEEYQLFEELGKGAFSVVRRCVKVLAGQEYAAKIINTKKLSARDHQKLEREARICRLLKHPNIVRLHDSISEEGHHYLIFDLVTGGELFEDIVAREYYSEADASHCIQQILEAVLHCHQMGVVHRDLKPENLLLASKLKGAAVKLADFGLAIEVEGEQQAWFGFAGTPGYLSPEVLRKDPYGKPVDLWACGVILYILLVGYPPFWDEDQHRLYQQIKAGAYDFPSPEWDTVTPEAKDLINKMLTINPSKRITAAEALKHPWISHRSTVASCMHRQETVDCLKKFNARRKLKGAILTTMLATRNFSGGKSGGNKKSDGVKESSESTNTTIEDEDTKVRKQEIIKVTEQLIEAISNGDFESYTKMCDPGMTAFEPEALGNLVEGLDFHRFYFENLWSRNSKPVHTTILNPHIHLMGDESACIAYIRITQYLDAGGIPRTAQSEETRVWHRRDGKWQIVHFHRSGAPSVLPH
UniProt Q8IVW4, sequence (whole entry, looked up): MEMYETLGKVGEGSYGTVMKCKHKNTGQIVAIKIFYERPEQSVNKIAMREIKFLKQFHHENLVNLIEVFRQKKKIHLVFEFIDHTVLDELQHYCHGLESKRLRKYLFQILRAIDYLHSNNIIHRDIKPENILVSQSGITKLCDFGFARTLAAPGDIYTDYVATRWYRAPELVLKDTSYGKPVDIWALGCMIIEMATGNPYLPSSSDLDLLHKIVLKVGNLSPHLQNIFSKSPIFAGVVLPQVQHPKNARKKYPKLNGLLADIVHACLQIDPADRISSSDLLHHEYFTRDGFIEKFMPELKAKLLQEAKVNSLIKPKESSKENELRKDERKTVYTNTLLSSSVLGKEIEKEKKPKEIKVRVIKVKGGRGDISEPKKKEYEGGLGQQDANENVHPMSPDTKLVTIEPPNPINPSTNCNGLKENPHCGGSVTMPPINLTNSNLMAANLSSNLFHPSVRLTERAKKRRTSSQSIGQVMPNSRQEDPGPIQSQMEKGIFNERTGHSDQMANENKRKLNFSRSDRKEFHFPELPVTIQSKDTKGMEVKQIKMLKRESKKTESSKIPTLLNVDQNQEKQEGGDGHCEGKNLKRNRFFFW
UniProt Q15835, sequence (whole entry, looked up): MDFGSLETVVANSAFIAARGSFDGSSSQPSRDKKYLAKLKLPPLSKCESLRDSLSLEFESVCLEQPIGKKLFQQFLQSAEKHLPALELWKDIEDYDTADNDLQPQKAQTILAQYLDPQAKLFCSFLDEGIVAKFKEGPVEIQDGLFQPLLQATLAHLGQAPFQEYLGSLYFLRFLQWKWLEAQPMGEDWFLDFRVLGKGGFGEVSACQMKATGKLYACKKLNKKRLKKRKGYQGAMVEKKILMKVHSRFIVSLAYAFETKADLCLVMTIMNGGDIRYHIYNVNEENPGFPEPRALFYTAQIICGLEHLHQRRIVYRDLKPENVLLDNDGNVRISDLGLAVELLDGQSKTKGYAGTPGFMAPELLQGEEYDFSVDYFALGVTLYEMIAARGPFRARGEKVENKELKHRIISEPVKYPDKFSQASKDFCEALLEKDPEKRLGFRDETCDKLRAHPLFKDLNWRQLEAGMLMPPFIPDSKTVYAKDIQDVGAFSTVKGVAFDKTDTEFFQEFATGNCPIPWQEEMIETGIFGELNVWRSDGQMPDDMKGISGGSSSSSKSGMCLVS
UniProt P53350, sequence (whole entry, looked up): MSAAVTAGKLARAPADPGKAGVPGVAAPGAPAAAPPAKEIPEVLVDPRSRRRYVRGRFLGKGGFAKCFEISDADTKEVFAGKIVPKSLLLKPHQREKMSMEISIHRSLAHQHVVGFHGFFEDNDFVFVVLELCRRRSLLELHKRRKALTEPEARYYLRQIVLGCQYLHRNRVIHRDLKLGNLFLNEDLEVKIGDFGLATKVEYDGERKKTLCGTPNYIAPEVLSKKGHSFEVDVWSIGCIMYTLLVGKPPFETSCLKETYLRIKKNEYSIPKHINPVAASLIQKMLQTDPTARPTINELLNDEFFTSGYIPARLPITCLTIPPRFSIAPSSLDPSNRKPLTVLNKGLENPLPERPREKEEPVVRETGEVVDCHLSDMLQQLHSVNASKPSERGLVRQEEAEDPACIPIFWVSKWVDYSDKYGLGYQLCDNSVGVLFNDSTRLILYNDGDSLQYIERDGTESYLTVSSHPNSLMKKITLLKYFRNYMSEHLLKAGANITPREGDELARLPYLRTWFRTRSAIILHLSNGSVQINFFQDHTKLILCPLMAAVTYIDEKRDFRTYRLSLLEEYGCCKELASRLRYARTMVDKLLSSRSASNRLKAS

Series 1
SMILES: COc1cc(-c2nc3ccc(C(=O)NCCCN4CCN(c5cccc(C)c5C)CC4)cc3n2C2CCC2)cc(OC)c1OC
| target | test | setting | remaining binding [%] |
| --- | --- | --- | --- |
| Serine/threonine-protein kinase PLK1 (PLK1, Homo sapiens, UniProt P53350) | binding, competition with immobilised ligand | 1 µM | 97 |
| Fibroblast growth factor receptor 4 (FGFR4, Homo sapiens, UniProt P22455) | binding, competition with immobilised ligand | 1 µM | 99 |
| Ephrin type-A receptor 2 (EPHA2, Homo sapiens, UniProt P29317) | binding, competition with immobilised ligand | 1 µM | 100 |
| Mitogen-activated protein kinase kinase kinase 4 (MAP3K4, Homo sapiens, UniProt Q9Y6R4) | binding, competition with immobilised ligand | 1 µM | 80 |
| Serine/threonine-protein kinase LATS1 (LATS1, Homo sapiens, UniProt O95835) | KINOMEscan | 1000 nM | 100 |
| Cyclin-dependent kinase 17 (CDK17, Homo sapiens, UniProt Q00537) | binding, competition with immobilised ligand | 1 µM | 99 |
| TRAF2 and NCK-interacting protein kinase (TNIK, Homo sapiens, UniProt Q9UKE5) | binding, competition with immobilised ligand | 1 µM | 100 |
| Eukaryotic translation initiation factor 2-alpha kinase 1 (EIF2AK1, Homo sapiens, UniProt Q9BQI3) | binding, competition with immobilised ligand | 1 µM | 96 |
| ALK tyrosine kinase receptor (ALK, Homo sapiens, UniProt Q9UM73, L1196M) | binding, competition with immobilised ligand | 1 µM | 100 |
| Rhodopsin kinase GRK1 (GRK1, Homo sapiens, UniProt Q15835) | binding, competition with immobilised ligand | 1 µM | 90 |
| Serine/threonine-protein kinase haspin (HASPIN, Homo sapiens, UniProt Q8TF76) | binding, competition with immobilised ligand | 1 µM | 72 |
| Calcium/calmodulin-dependent protein kinase type II subunit alpha (CAMK2A, Homo sapiens, UniProt Q9UQM7) | binding, competition with immobilised ligand | 1 µM | 97 |
| Serine/threonine-protein kinase 38 (STK38, Homo sapiens, UniProt Q15208) | binding, competition with immobilised ligand | 1 µM | 85 |
| Cyclin-dependent kinase 7 (CDK7, Homo sapiens, UniProt P50613) | binding, competition with immobilised ligand | 1 µM | 92 |

Series 2
Compound: CC[C@@]1(c2cccc(C(F)(F)F)c2)C2=C(Nc3n[nH]cc31)[C@H](F)C(C)(C)CC2=O (single isomer, unassigned)
Tested at: 1 µM
| target | test | scale | remaining binding [%] |
| --- | --- | --- | --- |
| Tyrosine-protein kinase Fes/Fps (FES, Homo sapiens, UniProt P07332) | binding, competition with immobilised ligand |  | 99 |
| Phosphatidylinositol 4,5-bisphosphate 3-kinase catalytic subunit alpha isoform (PIK3CA, Homo sapiens, UniProt P42336, C420R) | kinase binding, KINOMEscan | reference: DMSO control | 78 |
| Cyclin-dependent kinase 3 (CDK3, Homo sapiens, UniProt Q00526) | kinase binding, KINOMEscan | reference: DMSO control | 97 |
| FLT3 ITD, human | KINOMEscan |  | 100 |
| Cyclin-dependent kinase-like 3 (CDKL3, Homo sapiens, UniProt Q8IVW4) | binding, competition with immobilised ligand |  | 100 |
| 5'-AMP-activated protein kinase catalytic subunit alpha-2 (PRKAA2, Homo sapiens, UniProt P54646) | kinase binding, KINOMEscan | reference: DMSO control | 100 |
| SRSF protein kinase 2 (SRPK2, Homo sapiens, UniProt P78362) | kinase binding, KINOMEscan | reference: DMSO control | 91 |
| Tyrosine-protein kinase Fyn (FYN, Homo sapiens, UniProt P06241) | kinase binding, KINOMEscan | reference: DMSO control | 92 |
| Tyrosine-protein kinase ITK/TSK (ITK, Homo sapiens, UniProt Q08881) | kinase binding, KINOMEscan | reference: DMSO control | 100 |
| Mitogen-activated protein kinase kinase kinase 7 (MAP3K7, Homo sapiens, UniProt O43318) | binding, competition with immobilised ligand |  | 65 |
| cAMP-dependent protein kinase catalytic subunit alpha (PRKACA, Homo sapiens, UniProt P17612) | kinase binding, KINOMEscan | reference: DMSO control | 100 |
| Serine/threonine-protein kinase SIK3 (SIK3, Homo sapiens, UniProt Q9Y2K2) | binding, competition with immobilised ligand |  | 100 |
| Mitogen-activated protein kinase kinase kinase 10 (MAP3K10, Homo sapiens, UniProt Q02779) | kinase binding, KINOMEscan | reference: DMSO control | 91 |
| Wee1-like protein kinase 2 (WEE2, Homo sapiens, UniProt P0C1S8) | binding, competition with immobilised ligand |  | 100 |

Series 3
Compound: C[C@@H]1CN(c2ccc(-c3cc(C(=O)NCCOCCOCCOCCOCCOCCOCCNC(=O)/C=C/c4[nH]cc(C(=O)N[C@@H](CC(N)=O)c5ccc(F)c(Cl)c5)c4-c4ccc(Cl)cc4F)ccc3F)cc2NC(=O)c2ccc(F)cc2C(F)(F)F)C[C@H](C)N1C
Read-out: thermal unfolding
Method: differential scanning fluorimetry
Tested at: 5.5 µM
Reading: higher = more unfolded
DCAF1: DDB1- and CUL4-associated factor 1 (DCAF1, Homo sapiens, UniProt Q9Y4B6)
UniProt Q9Y4B6, sequence (whole entry, looked up): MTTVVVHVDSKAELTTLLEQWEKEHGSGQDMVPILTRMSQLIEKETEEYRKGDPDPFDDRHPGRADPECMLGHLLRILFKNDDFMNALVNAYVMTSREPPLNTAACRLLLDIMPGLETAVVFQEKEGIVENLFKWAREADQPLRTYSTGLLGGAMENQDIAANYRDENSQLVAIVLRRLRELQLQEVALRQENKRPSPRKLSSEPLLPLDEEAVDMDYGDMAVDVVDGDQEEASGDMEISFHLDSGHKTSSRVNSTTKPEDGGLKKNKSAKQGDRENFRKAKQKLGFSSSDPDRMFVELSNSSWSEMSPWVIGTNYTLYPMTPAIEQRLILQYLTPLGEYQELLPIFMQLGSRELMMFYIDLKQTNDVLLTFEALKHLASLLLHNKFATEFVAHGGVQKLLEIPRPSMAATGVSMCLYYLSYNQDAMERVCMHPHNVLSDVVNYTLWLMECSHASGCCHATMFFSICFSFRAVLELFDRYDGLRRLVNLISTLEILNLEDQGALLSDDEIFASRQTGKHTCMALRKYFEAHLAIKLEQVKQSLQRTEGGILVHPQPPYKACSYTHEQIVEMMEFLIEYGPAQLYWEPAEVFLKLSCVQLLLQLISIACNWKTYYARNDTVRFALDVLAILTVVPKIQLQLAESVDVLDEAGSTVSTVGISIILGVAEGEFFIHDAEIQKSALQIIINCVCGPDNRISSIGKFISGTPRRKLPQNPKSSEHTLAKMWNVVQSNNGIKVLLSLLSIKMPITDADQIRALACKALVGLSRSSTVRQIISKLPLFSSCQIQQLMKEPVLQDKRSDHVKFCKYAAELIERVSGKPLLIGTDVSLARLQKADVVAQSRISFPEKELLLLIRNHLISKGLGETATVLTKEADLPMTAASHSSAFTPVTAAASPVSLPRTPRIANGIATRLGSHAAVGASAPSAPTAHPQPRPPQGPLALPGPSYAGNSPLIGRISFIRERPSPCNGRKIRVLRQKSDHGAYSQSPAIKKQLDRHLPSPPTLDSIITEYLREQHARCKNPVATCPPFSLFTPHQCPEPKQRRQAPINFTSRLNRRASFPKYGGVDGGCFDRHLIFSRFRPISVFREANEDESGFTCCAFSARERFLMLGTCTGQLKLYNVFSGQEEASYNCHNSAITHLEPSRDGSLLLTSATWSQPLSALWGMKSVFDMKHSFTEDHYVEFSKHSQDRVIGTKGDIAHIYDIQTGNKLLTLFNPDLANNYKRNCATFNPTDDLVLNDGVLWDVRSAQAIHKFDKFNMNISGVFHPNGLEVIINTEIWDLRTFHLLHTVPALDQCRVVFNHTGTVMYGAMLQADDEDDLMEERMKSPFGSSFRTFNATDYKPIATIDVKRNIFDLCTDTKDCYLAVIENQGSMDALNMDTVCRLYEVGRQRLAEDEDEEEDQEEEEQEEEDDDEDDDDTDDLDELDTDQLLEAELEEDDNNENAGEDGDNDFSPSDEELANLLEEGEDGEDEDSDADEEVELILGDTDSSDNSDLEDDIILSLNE
WDR5: WD repeat-containing protein 5 (WDR5, Homo sapiens, UniProt P61964)
| target | setting | SYPRO Orange fluorescence |
| --- | --- | --- |
| DCAF1 | 40.6 °C | 11800 a.u. |
| DCAF1 | 84.01 °C | 36800 a.u. |
| DCAF1 | 60.21 °C | 47900 a.u. |
| DCAF1 | 80.21 °C | 39800 a.u. |
| DCAF1 | 82.41 °C | 38200 a.u. |
| WDR5 | 85.81 °C | 61000 a.u. |
| DCAF1 | 45.2 °C | 14600 a.u. |
| WDR5 | 57.41 °C | 15900 a.u. |
| WDR5 | 49.4 °C | 16100 a.u. |
| DCAF1 | 67.01 °C | 51500 a.u. |
| WDR5 | 49 °C | 15900 a.u. |

Single results of other studies
Method: SPR, single-cycle
| Compound | target | test system | setting | measurement | value |
| --- | --- | --- | --- | --- | --- |
| Cc1ncsc1-c1ccc(C(CO)NC(=O)C2CC(O)CN2C(=O)C(NC(=O)c2ccc(COc3c(-c4c(C)c(F)cc5[nH]ncc45)c(C4CC4)cc4c(N5CC6CC5CN6)nc(OC5CCOCC5)nc34)cc2)C(C)C)cc1 (centres unmarked) | KRAS/VHL, GDP-bound (Homo sapiens, UniProt P01116+P40337, G12D) | immobilized KRAS G12D | ternary, geometric mean, together with: VCB complex | koff | 0.0118 s⁻¹ |
| Cc1ncsc1-c1ccc(C2(NC(=O)C3CC(O)CN3C(=O)C(NC(=O)c3ccc(COc4c(-c5c(C)c(F)cc6[nH]ncc56)c(C5CC5)cc5c(N6CC7CC6CN7)nc(OC6CCOCC6)nc45)cc3)C(C)C)CC2)cc1 (centres unmarked) | von Hippel-Lindau disease tumor suppressor, with Elongin B/C (VHL, Homo sapiens, UniProt P40337) | immobilized VCB complex | binary | Kd | 0.692 µM and 1.09 µM and 0.484 µM |
